Literature values that unrelated publications cite.
Sequence of UniProt Q15375 (whole entry, looked up): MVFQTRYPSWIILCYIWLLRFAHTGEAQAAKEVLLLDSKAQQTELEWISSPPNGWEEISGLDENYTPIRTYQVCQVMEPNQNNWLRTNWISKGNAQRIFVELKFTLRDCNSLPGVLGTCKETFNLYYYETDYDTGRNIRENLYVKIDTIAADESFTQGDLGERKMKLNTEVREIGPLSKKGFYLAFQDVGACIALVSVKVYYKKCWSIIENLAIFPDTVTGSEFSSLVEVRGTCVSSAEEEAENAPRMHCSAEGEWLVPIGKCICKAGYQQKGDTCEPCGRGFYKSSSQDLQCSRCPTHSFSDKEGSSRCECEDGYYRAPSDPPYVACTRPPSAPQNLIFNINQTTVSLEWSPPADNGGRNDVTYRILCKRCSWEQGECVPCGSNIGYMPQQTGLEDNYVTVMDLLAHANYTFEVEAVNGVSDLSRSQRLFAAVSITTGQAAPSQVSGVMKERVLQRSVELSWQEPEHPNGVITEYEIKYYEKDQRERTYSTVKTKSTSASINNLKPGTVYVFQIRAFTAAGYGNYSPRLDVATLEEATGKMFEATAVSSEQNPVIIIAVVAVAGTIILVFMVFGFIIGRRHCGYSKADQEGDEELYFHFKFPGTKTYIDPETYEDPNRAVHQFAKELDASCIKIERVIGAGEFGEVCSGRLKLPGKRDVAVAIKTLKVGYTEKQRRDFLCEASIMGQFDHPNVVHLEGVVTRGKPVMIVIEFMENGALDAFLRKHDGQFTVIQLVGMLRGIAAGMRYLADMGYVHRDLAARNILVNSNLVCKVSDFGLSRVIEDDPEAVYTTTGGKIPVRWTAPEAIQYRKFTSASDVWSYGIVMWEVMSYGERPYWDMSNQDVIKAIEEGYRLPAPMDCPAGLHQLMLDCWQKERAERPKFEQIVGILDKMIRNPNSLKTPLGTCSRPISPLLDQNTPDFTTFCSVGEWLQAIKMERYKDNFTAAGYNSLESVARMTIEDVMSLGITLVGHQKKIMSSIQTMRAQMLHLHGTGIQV

SMILES | tested on | assay | test system | conditions | how to read | endpoint | result
CCCCCOC(=O)c1ccc(O)cc1 |  | octanol-water |  |  |  | logP | 3.72
CC(O)C(C)n1ncn(-c2ccc(N3CCN(c4ccc(OCC5COC(Cn6cncn6)(c6ccc(Cl)cc6Cl)O5)cc4)CC3)cc2)c1=O (stereo not drawn) |  | calculated | octanol/water |  |  | logP | 4.78
C[C@H](Cn1cnc2c(N)ncnc21)OCP(=O)(O)O |  |  | octanol/water |  |  | logP | 1.25
O=C(O)c1ccc(O)cc1 |  | octanol-water |  |  |  | logP | 1.58
C#C[C@]1(OC(C)=O)CC[C@H]2[C@@H]3CCC4=CC(=NO)CC[C@@H]4[C@H]3CC[C@@]21CC (mixture of isomers) |  |  |  |  |  | logP | 5.28
CC(=O)O[C@H]1C(=O)[C@@]2(C)[C@H]([C@H](OC(=O)c3ccccc3)[C@]3(O)C[C@H](OC(=O)[C@H](O)[C@@H](NC(=O)c4ccccc4)c4ccccc4)C(C)=C1C3(C)C)[C@]1(OC(C)=O)CO[C@@H]1C[C@@H]2O |  |  |  |  |  | logP | 3.3
O=S(=O)(O)c1cc(N=C=S)ccc1C=Cc1ccc(N=C=S)cc1S(=O)(=O)O |  |  |  |  |  | logP | 4.5
CCCCOC(=O)c1ccc(O)cc1 |  | octanol-water |  |  |  | logP | 3.57
Cc1c(Nc2ncccc2C(=O)O)cccc1C(F)(F)F |  |  |  |  |  | logP | 4.8
CCCN(CCC)S(=O)(=O)c1ccc(C(=O)O)cc1 |  |  |  |  |  | logP | 3.2
N=C(N)NCCCNC(=O)[C@@H]1CCCCN1C(=O)[C@@H](CC1CCCCC1)NCC(=O)O |  |  | octanol/water |  |  | logP | -0.6
Cc1cccc(Nc2ccccc2C(=O)O)c1C |  |  |  |  |  | logP | 5.03
CC/C(=C(/CC)c1ccc(O)cc1)c1ccc(O)cc1 |  |  |  |  |  | logP | 5.07
O=c1[nH]c(=O)n([C@@H]2O[C@H](CO)[C@@H](O)[C@@H]2F)cc1CCC[18F] |  |  | 1-octanol/0.1 M NaH2PO4 | pH 7.47 |  | logP | -0.12
CCOC(=O)c1ccc(O)cc1 |  | octanol-water |  |  |  | logP | 2.47
O=c1oc2cc(O)ccc2c2oc3cc(O)ccc3c12 |  |  |  |  |  | logP | 2.43
C[C@]1(c2nc3c(C(N)=O)cccc3[nH]2)CCCN1 |  |  |  |  |  | logP | 0.18
O=c1[nH]c(=O)n([C@H]2C[C@H](O)[C@@H](CO)O2)cc1CCCC[18F] |  |  | 1-octanol/0.1 M NaH2PO4 | pH 7.47 |  | logP | -0.24
COc1cc(C(=O)NS(=O)(=O)c2ccccc2C)ccc1Cc1cn(C)c2ccc(NC(=O)OC3CCCC3)cc12 |  |  |  |  |  | logP | 5.5
CC1(C)S[C@@H]2[C@H](NC(=O)Cc3ccccc3)C(=O)N2[C@H]1C(=O)O |  |  |  |  |  | logP | 1.72
Nc1cc(C(F)(F)F)c(-c2nc(N3CCOCC3)nc(N3CCOCC3)n2)cn1 | EPHA7 (Homo sapiens, UniProt Q15375) | enzyme activity |  | 10 µM | relative to: untreated | remaining activity | 93%
Cn1cncc1[C@@](N)(c1ccc(Cl)cc1)c1ccc2c(c1)c(-c1cccc(Cl)c1)cc(=O)n2C |  |  |  |  |  | logP | 4.41
CC[C@H]1OC(=O)[C@H](C)[C@@H](O[C@H]2C[C@@](C)(OC)[C@@H](O)[C@H](C)O2)[C@H](C)[C@@H](O[C@@H]2O[C@H](C)C[C@H](N(C)C)[C@H]2O)[C@](C)(OC)C[C@@H](C)C(=O)[C@H](C)[C@@H](O)[C@]1(C)O |  |  |  |  |  | logP | 3.13
O=c1[nH]c(=O)n([C@H]2C[C@H](O)[C@@H](CO)O2)cc1CCCCC[18F] |  |  | 1-octanol/0.1 M NaH2PO4 | pH 7.47 |  | logP | 0.23
CCCCCCCCOC(=O)c1ccc(O)cc1 |  | octanol-water |  |  |  | logP | 5.13
CC(O)C(C)n1ncn(-c2ccc(N3CCN(c4ccc(OCC5COC(Cn6cncn6)(c6ccc(Cl)cc6Cl)O5)cc4)CC3)cc2)c1=O (stereo not drawn) |  |  |  | Simcyp input parameter |  | logP | 4.5
COc1ccc(Cl)cc1C(=O)NCCc1ccc(S(=O)(=O)NC(=O)NC2CCCCC2)cc1 |  |  |  |  |  | logP | 4.8

A few entries again:
SMILES | tested on | assay | test system | conditions | how to read | endpoint | result
CC(O)C(C)n1ncn(-c2ccc(N3CCN(c4ccc(OCC5COC(Cn6cncn6)(c6ccc(Cl)cc6Cl)O5)cc4)CC3)cc2)c1=O (stereo not drawn) |  | calculated | octanol/water |  |  | logP | 4.78
CC(O)C(C)n1ncn(-c2ccc(N3CCN(c4ccc(OCC5COC(Cn6cncn6)(c6ccc(Cl)cc6Cl)O5)cc4)CC3)cc2)c1=O (stereo not drawn) |  |  |  | Simcyp input parameter |  | logP | 4.5
